Measured values from different studies.
Compare with care: the assays were run in different laboratories.
riboswitch RNA SAM-I metF-H2: riboswitch RNA SAM-I metF-H2 (Thermoanaerobacter tengcongensis)
T1: riboswitch RNA SAM-I metF-H2 (Thermoanaerobacter tengcongensis); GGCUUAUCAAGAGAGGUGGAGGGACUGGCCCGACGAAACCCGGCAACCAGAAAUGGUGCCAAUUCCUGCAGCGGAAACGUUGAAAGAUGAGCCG
T2: riboswitch RNA (Paenibacillus durus); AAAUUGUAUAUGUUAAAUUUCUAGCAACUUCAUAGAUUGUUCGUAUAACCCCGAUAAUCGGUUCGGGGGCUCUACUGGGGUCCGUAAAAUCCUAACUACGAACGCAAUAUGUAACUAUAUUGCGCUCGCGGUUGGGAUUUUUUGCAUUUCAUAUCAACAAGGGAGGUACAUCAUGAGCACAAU
T3: riboswitch RNA (Mesoplasma florum); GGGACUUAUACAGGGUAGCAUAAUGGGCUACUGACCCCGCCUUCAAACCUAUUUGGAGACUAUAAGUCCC
T4: riboswitch RNA U39C (Bacillus); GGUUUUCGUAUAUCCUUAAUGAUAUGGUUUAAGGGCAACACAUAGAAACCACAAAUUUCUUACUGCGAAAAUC
T5: riboswitch RNA U11A (Bacillus); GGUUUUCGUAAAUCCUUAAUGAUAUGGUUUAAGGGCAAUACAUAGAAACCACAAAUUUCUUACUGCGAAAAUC
T6: riboswitch RNA, extra G-C pair, UUCG loop; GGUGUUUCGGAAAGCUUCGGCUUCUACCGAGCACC
T7: riboswitch RNA SAM-I metF-H2 (Thermoanaerobacter tengcongensis); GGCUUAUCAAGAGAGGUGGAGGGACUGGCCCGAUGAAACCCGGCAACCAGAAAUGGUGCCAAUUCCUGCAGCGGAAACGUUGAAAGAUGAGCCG
T8: riboswitch RNA (Pseudomonas aeruginosa); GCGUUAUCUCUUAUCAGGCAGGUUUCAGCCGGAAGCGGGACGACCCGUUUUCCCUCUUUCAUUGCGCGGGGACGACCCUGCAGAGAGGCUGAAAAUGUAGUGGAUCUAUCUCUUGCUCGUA

target | assay | setting | binding | SMILES
T1, riboswitch RNA SAM-I metF-H2 (Thermoanaerobacter tengcongensis) | X-ray crystallography | added: Mg2+ | binds | Nc1ncnc2c1ncn2[C@@H]1O[C@H](C[C@@H](N)CC[C@H](N)C(=O)O)[C@@H](O)[C@H]1O
T2, riboswitch RNA (Paenibacillus durus) | transcription termination, function, single-round transcription termination | added: RNA polymerase | no binding | O=c1[nH]cnc2nc[nH]c12
T3, riboswitch RNA (Mesoplasma florum) | NMR | – | no binding | O=c1[nH]cnc2nc[nH]c12
T4, riboswitch RNA U39C (Bacillus) | ITC | KCl 50 mM | no binding | Nc1nc2[nH]cnc2c(=O)[nH]1
T3, riboswitch RNA (Mesoplasma florum) | NMR | – | no binding | O=c1[nH]cnc2c1ncn2[C@@H]1O[C@H](CO)[C@@H](O)[C@H]1O
T5, riboswitch RNA U11A (Bacillus) | ITC | KCl 50 mM | no binding | Nc1nc2c(ncn2[C@H]2C[C@H](O)[C@@H](CO)O2)c(=O)[nH]1
T3, riboswitch RNA (Mesoplasma florum) | NMR | – | no binding | Nc1nc2c(ncn2[C@@H]2O[C@H](COP(=O)(O)OP(=O)(O)OP(=O)(O)O)[C@@H](O)[C@H]2O)c(=O)[nH]1
T6, riboswitch RNA, extra G-C pair, UUCG loop | 1H,15N-HSQC NMR | pH 6.2, 283 K | binds | NC[C@H]1O[C@H](O[C@H]2[C@H](O)[C@@H](O[C@H]3O[C@H](CO)[C@@H](O)[C@H](N)[C@H]3O)[C@H](N)C[C@@H]2N)[C@H](O)[C@@H](O)[C@@H]1O
T7, riboswitch RNA SAM-I metF-H2 (Thermoanaerobacter tengcongensis) | ITC | apparent | binds | C[S+](CC[C@H](N)C(=O)O)C[C@H]1O[C@@H](n2cnc3c(N)ncnc32)[C@H](O)[C@@H]1O (stereo partly shown)
T8, riboswitch RNA (Pseudomonas aeruginosa) | sequencing | – | binds | N=C(N)N

For quick reference, copied from above:
target | assay | setting | binding | SMILES
T6, riboswitch RNA, extra G-C pair, UUCG loop | 1H,15N-HSQC NMR | pH 6.2, 283 K | binds | NC[C@H]1O[C@H](O[C@H]2[C@H](O)[C@@H](O[C@H]3O[C@H](CO)[C@@H](O)[C@H](N)[C@H]3O)[C@H](N)C[C@@H]2N)[C@H](O)[C@@H](O)[C@@H]1O
